{"data": "Experimental data from different studies", "UCHL1": "Ubiquitin carboxyl-terminal hydrolase isozyme L1 (UCHL1, Homo sapiens, UniProt P09936)", "note": "Compare with care: the assays were run in different laboratories. ± marks the error that the study gave.", "UniProt P09936, sequence (whole entry, looked up)": "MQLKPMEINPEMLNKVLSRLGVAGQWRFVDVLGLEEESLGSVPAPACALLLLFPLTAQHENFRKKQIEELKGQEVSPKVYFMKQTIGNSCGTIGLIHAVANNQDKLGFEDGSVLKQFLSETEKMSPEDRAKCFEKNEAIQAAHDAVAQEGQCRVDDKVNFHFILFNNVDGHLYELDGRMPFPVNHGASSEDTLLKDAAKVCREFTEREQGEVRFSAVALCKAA"}
{"SMILES": "O=C(Nc1nnc2n3c(nc(-c4ccc(Cl)cc4)c1-2)SCC3=O)c1ccccc1", "target or system": "MCF7", "test": "SRB", "conditions": "10 µM, NCI60 single-dose screen", "how to read": "relative to: untreated", "endpoint": "cell growth", "result": "76.6%"}
{"SMILES": "Cc1nc(NC(=O)N2CCC[C@H]2C(N)=O)sc1-c1ccnc(C(C)(C)C(F)(F)F)c1", "target or system": "MCF7", "test": "resazurin growth rate inhibition", "conditions": "72 h", "endpoint": "GR50", "result": "1620 nM"}
{"SMILES": "CCC(=O)c1cccnc1Nc1cccc(C(F)(F)F)c1", "target or system": "MCF7", "test": "firefly luciferase reporter", "conditions": "25 µM, 6 h", "how to read": "relative to: vehicle", "endpoint": "TEAD reporter activity", "result": "73.4 ± 6.5%"}
{"SMILES": "CCOC(=O)c1nn(-c2cccc(Cl)c2)/c(=N/N=C(\\C)c2ccc(NC(=O)c3ccc(Cl)cc3)cc2)s1", "target or system": "MCF7", "test": "MTT", "conditions": "0.156 µM", "endpoint": "cytotoxicity", "result": "78.1%"}
{"SMILES": "CCn1cc(-c2cc(Cn3ccnc3)cc3c2CCN([C@H](c2cc(OC)ccn2)C2CC2)C3=O)c(C(F)(F)F)n1", "target or system": "MCF7", "test": "cell growth, inhibitor", "conditions": "120 h", "endpoint": "EC50", "result": "> 30 µM"}
{"SMILES": "CCCC(CCC)C(=O)OCc1cn(-c2c3ccccc3nc3ccccc23)nn1", "target or system": "MCF7", "test": "NCI60 single-dose screen", "conditions": "10 µM", "endpoint": "growth percentage", "result": "97.2%"}
{"SMILES": "C#CCN1C(=O)C(=NNC(=O)OCC)c2cc(Br)ccc21", "target or system": "UCHL1", "test": "covalent, intact protein LC-MS", "conditions": "12.5 µM", "endpoint": "labelling", "result": "12.3%"}
{"SMILES": "CC(=NN=C1SCC(=O)N1C)c1c(O)c2ccccc2oc1=O", "target or system": "MCF7", "test": "cell growth, MTT", "how to read": "relative to: IC50 BJ-1 over MCF7", "endpoint": "selectivity index", "result": "> 3.05"}
{"SMILES": "CCCCN1CCN(c2ccc3[nH]c(-c4ccc5[nH]c(-c6ccc(OCC)c(OCC)c6)nc5c4)nc3c2)CC1", "target or system": "MCF7", "test": "SRB", "conditions": "10 µM, 48 h", "endpoint": "growth percent", "result": "-69.6%"}
{"SMILES": "CC(C)(C)c1ccc(CN2CCN(C(c3ccccc3)c3ccc(Cl)cc3)CC2)cc1 (stereo not shown)", "target or system": "MCF7", "conditions": "72 h", "endpoint": "EC50", "result": "19.1 ± 1.45 µM"}
{"SMILES": "C=C1CN(S(=O)(=O)c2ccc(C)cc2)CCCN(CCc2ccccc2)CCCN(S(=O)(=O)c2ccc(C)cc2)C1.Cl", "target or system": "MCF7", "conditions": "1 µM, 48 h, added: progranulin 1 µg/mL", "endpoint": "mammosphere formation", "result": "inhibited"}
{"SMILES": "CC(=O)c1nn(-c2ccc(Cl)cc2)/c(=N/N=C(\\C)c2ccc(NC(=O)c3ccc(Cl)cc3)cc2)s1", "target or system": "MCF7", "conditions": "2.5 µM", "endpoint": "toxicity", "result": "12.5%"}
{"SMILES": "C=CC(=O)c1cccnc1Nc1cc(C(F)(F)F)ccc1OCc1ccccc1", "target or system": "MCF7", "test": "firefly luciferase reporter", "conditions": "50 µM, 6 h", "how to read": "relative to: vehicle", "endpoint": "TEAD reporter activity", "result": "26.3 ± 1.4%"}
{"SMILES": "CC(=O)c1nn(-c2ccc(C)cc2)/c(=N/N=C(\\C)c2ccc(NC(=O)c3ccccc3)cc2)s1", "target or system": "MCF7", "test": "MTT", "conditions": "10 µM", "endpoint": "cytotoxicity", "result": "93.5%"}
{"SMILES": "CC(=NN=c1[nH]c(C)c(N=Nc2ccc(C)cc2)s1)c1c(O)c2ccccc2oc1=O", "target or system": "MCF7", "test": "cell growth, MTT", "how to read": "relative to: IC50 BJ-1 over MCF7", "endpoint": "selectivity index", "result": "> 3.8"}
{"SMILES": "C=CC(=O)c1ccccc1Nc1cc(C(F)(F)F)ccc1OC", "target or system": "MCF7", "test": "firefly luciferase reporter", "conditions": "50 µM, 6 h", "how to read": "relative to: vehicle", "endpoint": "TEAD reporter activity", "result": "56 ± 4.2%"}
{"SMILES": "Cc1cc(C(=O)N(C)CC2CCCN(CCc3ccc(F)cc3)C2)c(C)o1 (stereo not shown)", "target or system": "Trypanosoma cruzi", "test": "reporter translation, Renilla luciferase mRNA translation", "system": "cell-free extract", "conditions": "40 µM", "how to read": "relative to: DMSO", "endpoint": "inhibition", "result": "-3.4%"}
{"SMILES": "C=CC(=O)Nc1cc(S(=O)(=O)N(C)C)cc(C)c1C", "target or system": "UCHL1", "test": "covalent, intact protein LC-MS", "conditions": "12.5 µM", "endpoint": "labelling", "result": "11.8%"}
{"SMILES": "CC(=O)Nc1ccc(/C(C)=N/N=c2\\sc(C(C)=O)nn2-c2ccc(C)cc2)cc1", "target or system": "MCF7", "test": "MTT", "conditions": "5 µM", "endpoint": "cytotoxicity", "result": "78.8%"}
{"SMILES": "COc1ccc(COC[C@@](O)(CNCc2ccccc2)[C@@H]2CC[C@@H](C)C[C@H]2OCc2ccc(OC)cc2)cc1", "target or system": "MCF7", "test": "cell growth, inhibitor, MTT", "conditions": "72 h", "endpoint": "IC50", "result": "1430 nM"}
{"SMILES": "CC(=O)c1nn(-c2ccc(Cl)cc2)/c(=N/N=C(\\C)c2ccc(NC(=O)c3ccccc3)cc2)s1", "target or system": "MCF7", "conditions": "10 µM", "endpoint": "toxicity", "result": "95.2%"}
{"SMILES": "C#C[C@@]1(O)[C@@H](CO)O[C@@H](n2cc(I)c3c(N)ncnc32)[C@@H]1O", "target or system": "MCF7", "test": "SRB", "conditions": "NCI-60 screen", "endpoint": "TGI", "result": "> 100 µM"}
{"SMILES": "CC/C(=C(\\c1ccc(O)cc1)c1ccc(OCCN(C)C)cc1)c1ccccc1", "target or system": "MCF7", "conditions": "0.1 µM, 5 days", "how to read": "relative to: vehicle", "endpoint": "cell growth", "result": "74%"}
{"SMILES": "O=[N+]([O-])c1cc(Br)c(O)c(C=NNc2ccccc2)c1", "target or system": "MCF7", "test": "ELISA", "system": "culture supernatant", "conditions": "IC50, added: LPS", "endpoint": "TNF-α level", "result": "42%"}
{"SMILES": "CC[C@@H](C)[C@H](NC(=O)c1cc(Cl)ccc1OCCN)C(=O)Nc1ccc([N+](=O)[O-])cc1Cl", "target or system": "MCF7", "conditions": "up to 10 µM, 72 h", "endpoint": "antiproliferative activity", "result": "inactive"}
{"SMILES": "CCCN1CCN(c2ccc3nc(-c4ccc5nc(-c6cc(OC)ccc6OC)[nH]c5c4)[nH]c3c2)CC1", "target or system": "MCF7", "test": "SRB", "conditions": "10 µM, 48 h", "endpoint": "growth percent", "result": "-63.3%"}
{"SMILES": "CC(C)(C)OC(=O)NCCOc1ccc(Cl)cc1C(=O)N[C@@H](Cc1ccccc1)C(=O)Nc1ccc([N+](=O)[O-])cc1Cl", "target or system": "MCF7", "conditions": "up to 10 µM, 72 h", "endpoint": "antiproliferative activity", "result": "inactive"}
{"SMILES": "CC(=NN=c1[nH]c(C)c(N=Nc2ccccc2)s1)c1c(O)c2ccccc2oc1=O", "target or system": "MCF7", "test": "cell growth, MTT", "how to read": "relative to: IC50 BJ-1 over MCF7", "endpoint": "selectivity index", "result": "> 2.99"}
{"SMILES": "OCc1ccc(Nc2ccc3c(Nc4cccc(C(F)(F)F)c4)ncnc3c2)cc1", "target or system": "MCF7", "conditions": "IC50, 24 h", "endpoint": "S phase cells", "result": "65.1%"}
{"SMILES": "O=[N+]([O-])c1cc(I)c(O)c(C=NNc2ccccc2)c1", "target or system": "MCF7", "test": "ELISA", "system": "culture supernatant", "conditions": "IC50, added: LPS", "how to read": "relative to: LPS alone", "endpoint": "IL-6 level", "result": "34%"}
{"SMILES": "C=CC(=O)c1cccnc1Nc1cc(Cl)ccc1OC", "target or system": "MCF7", "test": "firefly luciferase reporter", "conditions": "25 µM, 6 h", "how to read": "relative to: vehicle", "endpoint": "TEAD reporter activity", "result": "86.4 ± 9%"}
{"SMILES": "CCOC(=O)c1nn(-c2cccc(Cl)c2)/c(=N/N=C(\\C)c2ccc(NC(=O)c3ccccc3)cc2)s1", "target or system": "MCF7", "test": "MTT", "conditions": "2.5 µM", "endpoint": "cytotoxicity", "result": "97.3%"}
{"SMILES": "CC(=NN=C1NC(=O)C(C)S1)c1c(O)c2ccccc2oc1=O (stereo not shown)", "target or system": "MCF7", "test": "cell growth, MTT", "how to read": "relative to: IC50 BJ-1 over MCF7", "endpoint": "selectivity index", "result": "> 3.65"}
{"SMILES": "CC/C(=C(\\c1ccccc1)c1ccc(OCCN(C)C)cc1)c1ccccc1", "target or system": "MCF7", "test": "RNA-seq, measured: RAPGEFL1 mRNA", "conditions": "1 µM, 24 h, E2-induced gene", "how to read": "relative to: DMSO vehicle", "endpoint": "log2 fold change", "result": 1.31}
{"SMILES": "C=CC(=O)c1cccnc1Nc1cccc(C(F)(F)F)c1", "target or system": "MCF7", "test": "reporter gene, measured: TEAD luciferase", "conditions": "100 µM", "endpoint": "inhibition", "result": "95%"}
{"SMILES": "CC(C)c1ccc(/C=C2\\N=C(SCC(=O)O)N(c3ccccc3)C2=O)cc1", "target or system": "MCF7", "how to read": "relative to: BJ1 IC50 over MCF7 IC50", "endpoint": "selectivity index", "result": 1.6}
{"SMILES": "C=CC(=O)c1cccnc1Nc1cc(C)ccc1OC", "target or system": "MCF7", "test": "firefly luciferase reporter", "conditions": "25 µM, 6 h", "how to read": "relative to: vehicle", "endpoint": "TEAD reporter activity", "result": "94.7 ± 5.5%"}
{"SMILES": "CC(=O)c1nn(-c2ccccc2Cl)/c(=N/N=C(\\C)c2ccc(NC(=O)c3ccccc3)cc2)s1", "target or system": "MCF7", "test": "MTT", "conditions": "0.078 µM", "endpoint": "cytotoxicity", "result": "52.5%"}
{"SMILES": "O=C(O)c1ccccc1Nc1cccc(C(F)(F)F)c1", "target or system": "MCF7", "test": "firefly luciferase reporter", "conditions": "25 µM, 6 h", "how to read": "relative to: vehicle", "endpoint": "TEAD reporter activity", "result": "88.9 ± 3.1%"}
{"SMILES": "Cn1cncc1C1=CN(c2ncnc3[nH]cnc23)CCS1", "target or system": "MCF7", "endpoint": "GI50", "result": "30.9 µM"}
{"SMILES": "COc1ccc(-n2nc(C(C)=O)s/c2=N\\N=C(/C)c2ccc(NC(=O)c3ccc(C)cc3)cc2)cc1", "target or system": "MCF7", "conditions": "0.312 µM", "endpoint": "toxicity", "result": "82.3%"}
{"SMILES": "CCCCN1CCN(c2ccc3[nH]c(-c4ccc5[nH]c(-c6ccc(C(F)(F)F)cc6)nc5c4)nc3c2)CC1", "target or system": "MCF7", "test": "SRB", "conditions": "10 µM, 48 h", "endpoint": "growth percent", "result": "-74.3%"}
{"SMILES": "C[C@H](Nc1ccc2c(c1)OCCn1cc(N3C(=O)OC[C@H]3C(F)F)nc1-2)C(N)=O", "target or system": "MCF7", "test": "resazurin growth rate inhibition", "conditions": "72 h", "endpoint": "GR50", "result": "142 nM"}
{"SMILES": "COc1ccc(-n2nc(C(C)=O)s/c2=N\\N=C(/C)c2ccc(NC(=O)c3ccccc3)cc2)cc1", "target or system": "MCF7", "conditions": "0.078 µM", "endpoint": "toxicity", "result": "11.4%"}
{"SMILES": "C[C@@H]1CC[C@@H]([C@](C)(O)CNCc2cccc3ccccc23)[C@H](OCc2ccccc2)C1", "target or system": "MCF7", "test": "cell growth, inhibitor, MTT", "conditions": "72 h", "endpoint": "IC50", "result": "4260 nM"}
{"SMILES": "Cc1cc(-c2ccccc2)n(-c2nc(-c3ccc(Cl)cc3)c3c(NC(=O)c4ccccc4)nnc-3[nH]2)n1", "target or system": "MCF7", "test": "SRB", "conditions": "10 µM, NCI60 single-dose screen", "how to read": "relative to: untreated", "endpoint": "cell growth", "result": "58.3%"}
